Assay results from different studies.
Parts stem from different laboratories: compare values within a part only.
Sequence of UniProt P19784 (whole entry, looked up): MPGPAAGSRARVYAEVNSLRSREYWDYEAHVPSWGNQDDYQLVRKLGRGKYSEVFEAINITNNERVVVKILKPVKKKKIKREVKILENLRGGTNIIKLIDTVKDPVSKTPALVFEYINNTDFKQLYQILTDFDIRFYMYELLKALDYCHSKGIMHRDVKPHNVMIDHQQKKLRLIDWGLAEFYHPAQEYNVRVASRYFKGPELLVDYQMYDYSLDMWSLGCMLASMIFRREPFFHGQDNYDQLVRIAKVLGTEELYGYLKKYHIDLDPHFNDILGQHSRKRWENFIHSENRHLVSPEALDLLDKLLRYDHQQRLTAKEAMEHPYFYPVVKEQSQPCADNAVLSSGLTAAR
Sequence of UniProt P10721 (whole entry, unmodified, looked up): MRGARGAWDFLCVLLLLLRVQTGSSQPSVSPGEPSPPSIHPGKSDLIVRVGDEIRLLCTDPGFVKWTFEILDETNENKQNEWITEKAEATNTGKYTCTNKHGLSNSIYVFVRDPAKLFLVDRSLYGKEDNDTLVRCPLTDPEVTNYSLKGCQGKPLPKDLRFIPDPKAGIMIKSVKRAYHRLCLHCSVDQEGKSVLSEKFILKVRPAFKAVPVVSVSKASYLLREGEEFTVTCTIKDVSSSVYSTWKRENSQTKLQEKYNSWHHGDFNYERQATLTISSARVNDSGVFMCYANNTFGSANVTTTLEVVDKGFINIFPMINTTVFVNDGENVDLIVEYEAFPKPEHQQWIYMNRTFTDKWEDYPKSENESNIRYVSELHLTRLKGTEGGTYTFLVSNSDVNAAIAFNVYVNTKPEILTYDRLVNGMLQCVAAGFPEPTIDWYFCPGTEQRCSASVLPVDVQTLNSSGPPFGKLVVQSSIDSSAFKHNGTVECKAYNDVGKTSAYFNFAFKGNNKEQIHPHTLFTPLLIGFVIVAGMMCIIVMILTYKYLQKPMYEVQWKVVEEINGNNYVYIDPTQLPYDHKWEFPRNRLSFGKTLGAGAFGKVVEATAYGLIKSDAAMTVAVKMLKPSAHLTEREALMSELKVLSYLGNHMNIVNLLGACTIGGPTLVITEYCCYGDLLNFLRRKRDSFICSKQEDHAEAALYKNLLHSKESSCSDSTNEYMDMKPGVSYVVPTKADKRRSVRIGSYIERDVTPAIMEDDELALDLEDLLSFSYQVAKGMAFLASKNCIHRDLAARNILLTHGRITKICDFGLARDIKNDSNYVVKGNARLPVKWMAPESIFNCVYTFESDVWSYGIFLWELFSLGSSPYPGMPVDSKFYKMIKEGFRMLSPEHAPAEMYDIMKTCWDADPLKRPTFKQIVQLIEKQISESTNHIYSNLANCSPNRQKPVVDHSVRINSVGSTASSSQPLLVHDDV
Sequence of UniProt P51813 (whole entry, looked up): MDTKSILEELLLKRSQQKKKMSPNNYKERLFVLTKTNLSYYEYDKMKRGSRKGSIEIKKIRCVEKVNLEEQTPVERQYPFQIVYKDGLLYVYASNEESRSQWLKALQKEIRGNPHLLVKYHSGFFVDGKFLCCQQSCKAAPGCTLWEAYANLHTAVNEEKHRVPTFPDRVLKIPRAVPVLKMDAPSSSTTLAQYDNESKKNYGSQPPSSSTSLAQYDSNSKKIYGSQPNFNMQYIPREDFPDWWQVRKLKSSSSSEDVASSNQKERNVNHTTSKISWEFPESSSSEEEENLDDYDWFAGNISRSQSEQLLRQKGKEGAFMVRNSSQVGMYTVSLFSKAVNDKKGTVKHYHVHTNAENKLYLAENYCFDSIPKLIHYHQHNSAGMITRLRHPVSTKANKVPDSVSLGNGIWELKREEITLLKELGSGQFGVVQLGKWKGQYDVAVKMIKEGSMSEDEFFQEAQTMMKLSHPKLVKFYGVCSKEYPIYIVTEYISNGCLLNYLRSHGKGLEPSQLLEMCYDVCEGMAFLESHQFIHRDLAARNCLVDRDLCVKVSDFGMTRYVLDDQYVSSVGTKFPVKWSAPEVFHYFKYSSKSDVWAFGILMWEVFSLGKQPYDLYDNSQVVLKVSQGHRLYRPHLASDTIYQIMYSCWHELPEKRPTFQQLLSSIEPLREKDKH
Sequence of UniProt P41279 (whole entry, looked up): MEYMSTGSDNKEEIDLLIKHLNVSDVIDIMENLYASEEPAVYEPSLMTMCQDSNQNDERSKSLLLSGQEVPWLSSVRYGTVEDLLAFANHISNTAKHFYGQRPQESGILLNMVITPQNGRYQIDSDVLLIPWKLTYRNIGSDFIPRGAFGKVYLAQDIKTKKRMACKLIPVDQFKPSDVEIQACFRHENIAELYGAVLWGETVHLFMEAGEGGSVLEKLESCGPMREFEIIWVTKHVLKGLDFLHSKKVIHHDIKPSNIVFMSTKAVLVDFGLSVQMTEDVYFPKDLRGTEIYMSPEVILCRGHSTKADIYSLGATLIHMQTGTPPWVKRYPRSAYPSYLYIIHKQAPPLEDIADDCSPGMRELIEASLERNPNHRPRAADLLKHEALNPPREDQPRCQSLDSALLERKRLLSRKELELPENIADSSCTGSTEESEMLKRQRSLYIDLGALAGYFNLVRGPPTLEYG

Block 1
Target: DNA polymerase theta, helicase domain (POLQ, Homo sapiens, UniProt O75417)
Sequence of UniProt O75417 (whole entry, looked up): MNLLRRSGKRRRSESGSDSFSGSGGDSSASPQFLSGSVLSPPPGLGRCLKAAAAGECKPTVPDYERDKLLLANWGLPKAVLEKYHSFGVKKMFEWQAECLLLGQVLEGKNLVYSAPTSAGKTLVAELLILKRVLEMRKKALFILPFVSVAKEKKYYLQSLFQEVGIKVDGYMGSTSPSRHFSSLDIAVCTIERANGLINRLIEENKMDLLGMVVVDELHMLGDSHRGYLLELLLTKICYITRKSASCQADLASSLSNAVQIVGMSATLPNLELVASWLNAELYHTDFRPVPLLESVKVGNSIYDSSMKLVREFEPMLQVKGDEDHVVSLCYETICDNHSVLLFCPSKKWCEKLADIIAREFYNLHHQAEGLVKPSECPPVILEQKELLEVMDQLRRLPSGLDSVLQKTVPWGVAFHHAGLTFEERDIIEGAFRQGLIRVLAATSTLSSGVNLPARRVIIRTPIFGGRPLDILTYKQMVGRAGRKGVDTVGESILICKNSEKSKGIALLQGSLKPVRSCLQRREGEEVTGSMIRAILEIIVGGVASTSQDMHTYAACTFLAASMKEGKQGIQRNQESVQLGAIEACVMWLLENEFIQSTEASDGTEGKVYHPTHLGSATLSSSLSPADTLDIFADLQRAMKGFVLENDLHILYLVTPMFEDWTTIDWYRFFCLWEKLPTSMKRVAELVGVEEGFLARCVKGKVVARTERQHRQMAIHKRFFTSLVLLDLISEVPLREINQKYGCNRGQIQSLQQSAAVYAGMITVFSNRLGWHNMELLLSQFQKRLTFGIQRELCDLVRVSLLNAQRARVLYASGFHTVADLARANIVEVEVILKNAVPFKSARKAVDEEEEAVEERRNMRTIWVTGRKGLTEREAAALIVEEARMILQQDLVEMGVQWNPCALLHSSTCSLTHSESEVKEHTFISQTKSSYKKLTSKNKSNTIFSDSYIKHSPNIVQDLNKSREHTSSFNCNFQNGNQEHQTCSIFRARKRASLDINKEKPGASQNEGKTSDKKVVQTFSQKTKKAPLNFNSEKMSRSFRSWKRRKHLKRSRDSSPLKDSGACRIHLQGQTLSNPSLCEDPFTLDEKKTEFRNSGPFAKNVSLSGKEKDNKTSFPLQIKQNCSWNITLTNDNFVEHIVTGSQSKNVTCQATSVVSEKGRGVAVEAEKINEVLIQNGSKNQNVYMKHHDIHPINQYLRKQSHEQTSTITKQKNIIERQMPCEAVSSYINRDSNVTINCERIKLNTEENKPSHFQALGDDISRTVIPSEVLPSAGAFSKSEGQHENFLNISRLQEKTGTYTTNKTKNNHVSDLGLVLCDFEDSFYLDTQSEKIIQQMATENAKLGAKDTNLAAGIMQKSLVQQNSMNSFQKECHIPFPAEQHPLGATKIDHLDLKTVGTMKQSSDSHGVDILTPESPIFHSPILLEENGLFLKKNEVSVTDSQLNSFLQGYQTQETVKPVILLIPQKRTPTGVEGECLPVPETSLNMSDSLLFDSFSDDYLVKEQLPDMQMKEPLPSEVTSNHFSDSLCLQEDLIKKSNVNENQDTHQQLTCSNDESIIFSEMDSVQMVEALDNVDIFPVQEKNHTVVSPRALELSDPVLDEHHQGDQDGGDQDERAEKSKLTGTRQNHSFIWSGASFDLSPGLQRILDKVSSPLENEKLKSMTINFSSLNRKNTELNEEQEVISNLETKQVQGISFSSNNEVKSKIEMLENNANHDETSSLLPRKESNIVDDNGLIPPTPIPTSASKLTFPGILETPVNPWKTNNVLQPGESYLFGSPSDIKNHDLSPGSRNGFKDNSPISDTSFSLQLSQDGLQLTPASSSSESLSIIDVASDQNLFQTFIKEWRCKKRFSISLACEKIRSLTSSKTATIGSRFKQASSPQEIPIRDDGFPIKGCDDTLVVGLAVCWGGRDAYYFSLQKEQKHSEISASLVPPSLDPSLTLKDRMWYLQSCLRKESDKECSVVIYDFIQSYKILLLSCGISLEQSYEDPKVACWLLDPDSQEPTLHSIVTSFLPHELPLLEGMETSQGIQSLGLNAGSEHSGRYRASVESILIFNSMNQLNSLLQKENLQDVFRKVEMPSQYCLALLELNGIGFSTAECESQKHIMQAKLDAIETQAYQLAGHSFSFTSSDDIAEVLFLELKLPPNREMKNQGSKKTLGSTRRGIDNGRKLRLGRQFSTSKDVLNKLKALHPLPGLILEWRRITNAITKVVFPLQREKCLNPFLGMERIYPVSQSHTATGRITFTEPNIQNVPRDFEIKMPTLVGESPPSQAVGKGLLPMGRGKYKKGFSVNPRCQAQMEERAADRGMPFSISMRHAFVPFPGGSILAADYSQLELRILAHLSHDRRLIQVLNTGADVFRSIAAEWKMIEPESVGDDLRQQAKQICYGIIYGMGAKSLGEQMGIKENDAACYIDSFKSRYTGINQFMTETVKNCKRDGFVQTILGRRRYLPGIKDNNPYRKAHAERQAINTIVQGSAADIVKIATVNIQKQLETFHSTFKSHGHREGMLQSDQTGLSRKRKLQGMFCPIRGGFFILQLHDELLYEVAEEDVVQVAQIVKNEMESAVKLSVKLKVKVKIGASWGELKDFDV
Observed: ATPase activity
Tested at: concentration not given
Notes: average
With: with ssDNA
`O=c1[nH]c2cc(Cl)ccc2c(O)c1-c1cccc(Oc2ccccc2)c1` has a remaining activity of 73.2%.
`COc1cccc2c1C(=O)c1c(O)c3c(c(O)c1C2=O)C[C@@](O)(C(C)=O)C[C@@H]3O[C@H]1C[C@H](N)[C@H](O)[C@H](C)O1` has a remaining activity of 52.8%.
The remaining activity of `Cc1ccc(NC(=O)CSc2ncc(S(=O)(=O)c3ccc(C(C)C)cc3)c(=O)[nH]2)cc1C` is reported as 77.3%.
`Cc1c(Cl)cccc1NC(=O)CSc1ncc(S(=O)(=O)c2ccc(C(C)C)cc2)c(=O)[nH]1` gave a remaining activity of 69.3%.
For `CC[N+](C)(CC)CCC[n+]1c(-c2ccccc2)c2cc(N)ccc2c2ccc(N)cc21`, the remaining activity was 41.5%.
`N#Cc1c(O)c2c(-c3ccc(-c4ccccc4O)cc3)csc2[nH]c1=O` gave a remaining activity of 50.7%.
For `O=C(Nc1cc2cc[nH]c2cn1)c1ccccc1`, the remaining activity was 55.3%.
For `CCCCCCCCCCCCCCCC(=O)OC[C@H](O)[C@H]1OC(=O)C(O)=C1O`, the remaining activity was 23%.

Block 2
Structure (SMILES): COc1cc2ncnc(Nc3ccc(OCc4ccccc4)cc3)c2cc1OC
Observed: enzyme activity
Action: inhibitor
Tested at: 0.5 µM
Baseline: control
Serine/threonine-protein kinase N2 (PKN2, Homo sapiens, UniProt Q16513) — remaining activity: 94.1%.
It gave 99.8% for remaining activity (Protein-tyrosine kinase 2-beta (PTK2B, Homo sapiens, UniProt Q14289)).
The remaining activity was 90.1% (Mitogen-activated protein kinase kinase kinase 8 (MAP3K8, Homo sapiens, UniProt P41279)).
Proto-oncogene tyrosine-protein kinase receptor Ret (RET, Homo sapiens, UniProt P07949) — remaining activity: 89.1%.
It gave 103% for remaining activity (Serine/threonine-protein kinase BRSK1 (BRSK1, Homo sapiens, UniProt Q8TDC3)).
For Myotonin-protein kinase (DMPK, Homo sapiens, UniProt Q09013): remaining activity read 104%.
Mitogen-activated protein kinase kinase kinase 2 (MAP3K2, Homo sapiens, UniProt Q9Y2U5) — remaining activity: 113%.
Epidermal growth factor receptor (EGFR, Homo sapiens, UniProt P00533) — remaining activity: 21.3%.
It gave 93.8% for remaining activity (NT-3 growth factor receptor (NTRK3, Homo sapiens, UniProt Q16288)).
It gave 96% for remaining activity (Rho-associated protein kinase 2 (ROCK2, Homo sapiens, UniProt O75116)).
For Proto-oncogene tyrosine-protein kinase ROS (ROS1, Homo sapiens, UniProt P08922): remaining activity read 98%.
It gave 98.8% for remaining activity (Cyclin-dependent kinase 7 (CDK7, Homo sapiens, UniProt P50613)).
The remaining activity was 97.1% (Calcium/calmodulin-dependent protein kinase type 1G (CAMK1G, Homo sapiens, UniProt Q96NX5)).
For Mitogen-activated protein kinase 10 (MAPK10, Homo sapiens, UniProt P53779): remaining activity read 84.5%.
The remaining activity was 97.6% (Dual specificity tyrosine-phosphorylation-regulated kinase 4 (DYRK4, Homo sapiens, UniProt Q9NR20)).
For Casein kinase II subunit alpha' (CSNK2A2, Homo sapiens, UniProt P19784): remaining activity read 95.3%.
The remaining activity was 85.3% (Homeodomain-interacting protein kinase 3 (HIPK3, Homo sapiens, UniProt Q9H422)).
The remaining activity was 76.4% (STE20-like serine/threonine-protein kinase (SLK, Homo sapiens, UniProt Q9H2G2)).
It gave 91.3% for remaining activity (Aurora kinase A (AURKA, Homo sapiens, UniProt O14965)).
The remaining activity was 105% (G protein-coupled receptor kinase 5 (GRK5, Homo sapiens, UniProt P34947)).
Cyclin-dependent kinase 2, with cyclin A (CDK2, Homo sapiens, UniProt P24941) — remaining activity: 100%.
It gave 101% for remaining activity (Serine/threonine-protein kinase D1 (PRKD1, Homo sapiens, UniProt Q15139)).

Block 3
Host: human
Sample: microsomes or S9
Tested at: 2 µM
Time: 0.5 h
For `COc1cc(=O)[nH]cc1C(=O)N1CCNC(c2ccccc2)C1` (stereo not shown), the remaining compound was greater than 99%.
The remaining compound of `O=C(C(F)CC1CCCCC1)N1CCC(N2CCCCC2=O)CC1` (stereo not shown) is reported as 72%.
`Fc1ccc(-c2cc3c(cn2)sc2ccccc23)cc1` gave a remaining compound of 67.4%.
`O=S1(=O)N=C(N2CCOCC2)c2ccccc21` has a remaining compound of greater than 99%.
With `CCOc1ccc(C(=O)N2CC(c3nnc(-c4ccncc4)o3)C3(CCOCC3)C2)cc1` (stereo not shown) the remaining compound was 74.7%.
The remaining compound of `O=C1NCC2C1CCCN2C(=O)c1cnn(-c2ccc(F)cc2)n1` (stereo not shown) is reported as 12.8%.
`COc1cccc2c1OC1(CCN(Cc3ccccc3)CC1)N1N=C(c3ccc(C)o3)CC21` (stereo not shown) gave a remaining compound of 21%.

Block 4
Structure (SMILES): N#Cc1ccc(Nc2ccc3[nH]c(=O)[nH]c3c2)c(Cl)c1
Observed: cell-free assay
Method: competition with immobilised ligand
Tested at: 1 µM
The remaining binding was 100% (Dual specificity mitogen-activated protein kinase kinase 7 (MAP2K7, Homo sapiens, UniProt O14733)).
It gave 99% for remaining binding (Phosphatidylinositol 4-phosphate 3-kinase C2 domain-containing subunit beta (PIK3C2B, Homo sapiens, UniProt O00750)).
It gave 100% for remaining binding (Epidermal growth factor receptor (EGFR, Homo sapiens, UniProt P00533, G719S)).
Serine/threonine-protein kinase Sgk3 (SGK3, Homo sapiens, UniProt Q96BR1) — remaining binding: 100%.
For Mast/stem cell growth factor receptor Kit (KIT, Homo sapiens, UniProt P10721, V559D/V654A): remaining binding read 96%.
The remaining binding was 100% (Cytoplasmic tyrosine-protein kinase BMX (BMX, Homo sapiens, UniProt P51813)).
Mitogen-activated protein kinase kinase kinase 14 (MAP3K14, Homo sapiens, UniProt Q99558) — remaining binding: 100%.
For Ephrin type-A receptor 5 (EPHA5, Homo sapiens, UniProt P54756): remaining binding read 100%.
It gave 95% for remaining binding (Serine/threonine-protein kinase LATS2 (LATS2, Homo sapiens, UniProt Q9NRM7)).

Excerpt of the above (block 3):
`Fc1ccc(-c2cc3c(cn2)sc2ccccc23)cc1` gave a remaining compound of 67.4%.
`O=S1(=O)N=C(N2CCOCC2)c2ccccc21` has a remaining compound of greater than 99%.
With `CCOc1ccc(C(=O)N2CC(c3nnc(-c4ccncc4)o3)C3(CCOCC3)C2)cc1` (stereo not shown) the remaining compound was 74.7%.
The remaining compound of `O=C1NCC2C1CCCN2C(=O)c1cnn(-c2ccc(F)cc2)n1` (stereo not shown) is reported as 12.8%.
`COc1cccc2c1OC1(CCN(Cc3ccccc3)CC1)N1N=C(c3ccc(C)o3)CC21` (stereo not shown) gave a remaining compound of 21%.
